# Measured values pooled from the literature.
# Numbered parts are unrelated; each lists some results of a single study. Substitutions count along the parent as printed.
# Chain of UniProt P51812 (whole entry, looked up): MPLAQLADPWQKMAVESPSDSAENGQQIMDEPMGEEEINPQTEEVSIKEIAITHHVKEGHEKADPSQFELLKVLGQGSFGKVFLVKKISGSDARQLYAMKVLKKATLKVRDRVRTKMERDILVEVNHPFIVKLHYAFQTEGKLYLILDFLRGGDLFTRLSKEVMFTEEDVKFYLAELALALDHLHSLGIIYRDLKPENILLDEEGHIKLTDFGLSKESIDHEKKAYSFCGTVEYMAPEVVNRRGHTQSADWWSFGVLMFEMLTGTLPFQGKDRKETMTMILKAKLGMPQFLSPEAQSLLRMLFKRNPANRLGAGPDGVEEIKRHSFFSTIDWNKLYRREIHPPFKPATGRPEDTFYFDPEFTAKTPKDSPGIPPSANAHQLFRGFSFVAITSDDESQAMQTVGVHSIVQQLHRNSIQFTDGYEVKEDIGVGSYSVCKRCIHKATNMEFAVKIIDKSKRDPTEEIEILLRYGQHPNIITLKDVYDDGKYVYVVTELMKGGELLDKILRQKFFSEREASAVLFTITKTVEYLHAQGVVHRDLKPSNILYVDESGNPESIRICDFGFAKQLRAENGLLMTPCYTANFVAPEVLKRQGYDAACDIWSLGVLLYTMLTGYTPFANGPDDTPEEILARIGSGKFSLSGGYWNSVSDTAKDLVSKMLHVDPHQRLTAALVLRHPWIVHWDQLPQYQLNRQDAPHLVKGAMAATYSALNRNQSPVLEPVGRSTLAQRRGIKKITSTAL
# Chain of UniProt O00444 (whole entry, looked up): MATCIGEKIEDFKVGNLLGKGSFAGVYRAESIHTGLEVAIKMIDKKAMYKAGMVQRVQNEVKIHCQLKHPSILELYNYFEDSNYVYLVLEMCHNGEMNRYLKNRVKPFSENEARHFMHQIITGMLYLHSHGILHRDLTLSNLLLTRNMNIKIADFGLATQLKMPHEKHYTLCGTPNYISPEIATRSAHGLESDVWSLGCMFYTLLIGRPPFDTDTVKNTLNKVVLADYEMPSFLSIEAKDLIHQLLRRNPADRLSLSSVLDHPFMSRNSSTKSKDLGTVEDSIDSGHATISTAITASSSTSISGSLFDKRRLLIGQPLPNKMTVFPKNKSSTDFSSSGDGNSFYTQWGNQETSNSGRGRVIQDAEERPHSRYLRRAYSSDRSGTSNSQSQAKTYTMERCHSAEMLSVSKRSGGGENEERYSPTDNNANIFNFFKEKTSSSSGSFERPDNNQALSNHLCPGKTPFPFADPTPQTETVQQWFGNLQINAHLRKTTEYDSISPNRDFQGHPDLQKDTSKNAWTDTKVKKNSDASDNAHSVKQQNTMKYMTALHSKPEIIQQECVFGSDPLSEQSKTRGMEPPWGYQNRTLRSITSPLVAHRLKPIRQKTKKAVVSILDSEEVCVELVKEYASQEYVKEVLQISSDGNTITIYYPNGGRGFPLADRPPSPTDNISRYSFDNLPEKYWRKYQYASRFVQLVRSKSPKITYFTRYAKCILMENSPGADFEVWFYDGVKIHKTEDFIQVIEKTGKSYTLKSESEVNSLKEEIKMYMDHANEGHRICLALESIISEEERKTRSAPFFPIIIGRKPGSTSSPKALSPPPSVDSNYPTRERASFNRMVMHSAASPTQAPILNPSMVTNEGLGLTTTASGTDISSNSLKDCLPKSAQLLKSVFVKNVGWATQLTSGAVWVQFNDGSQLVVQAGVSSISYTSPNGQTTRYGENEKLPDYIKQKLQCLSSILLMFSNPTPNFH
# Chain of UniProt Q9UQM7 (whole entry, looked up): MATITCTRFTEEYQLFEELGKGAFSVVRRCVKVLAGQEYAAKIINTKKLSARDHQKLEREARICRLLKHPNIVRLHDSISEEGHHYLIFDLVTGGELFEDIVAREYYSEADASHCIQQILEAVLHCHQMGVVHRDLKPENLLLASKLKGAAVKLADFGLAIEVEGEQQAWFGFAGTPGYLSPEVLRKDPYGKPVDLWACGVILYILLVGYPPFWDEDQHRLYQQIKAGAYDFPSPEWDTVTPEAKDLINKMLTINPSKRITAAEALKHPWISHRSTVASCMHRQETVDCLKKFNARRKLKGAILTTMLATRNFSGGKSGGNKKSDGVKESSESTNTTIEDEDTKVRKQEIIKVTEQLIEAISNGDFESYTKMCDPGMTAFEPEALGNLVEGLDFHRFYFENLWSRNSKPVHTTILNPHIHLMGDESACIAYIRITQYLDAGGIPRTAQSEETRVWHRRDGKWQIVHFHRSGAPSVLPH
# Chain of UniProt P38919 (whole entry, looked up): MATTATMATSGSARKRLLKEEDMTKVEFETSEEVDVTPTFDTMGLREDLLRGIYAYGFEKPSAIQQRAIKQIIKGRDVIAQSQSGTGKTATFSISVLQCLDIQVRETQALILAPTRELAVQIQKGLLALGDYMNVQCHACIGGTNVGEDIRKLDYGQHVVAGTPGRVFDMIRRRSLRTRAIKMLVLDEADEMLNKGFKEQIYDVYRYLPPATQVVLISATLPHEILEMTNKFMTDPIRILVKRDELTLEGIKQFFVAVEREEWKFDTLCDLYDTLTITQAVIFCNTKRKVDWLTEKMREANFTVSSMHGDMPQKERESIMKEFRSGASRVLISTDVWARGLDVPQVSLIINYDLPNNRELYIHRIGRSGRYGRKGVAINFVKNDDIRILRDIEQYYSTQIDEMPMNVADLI
# Chain of UniProt Q07912 (whole entry, looked up): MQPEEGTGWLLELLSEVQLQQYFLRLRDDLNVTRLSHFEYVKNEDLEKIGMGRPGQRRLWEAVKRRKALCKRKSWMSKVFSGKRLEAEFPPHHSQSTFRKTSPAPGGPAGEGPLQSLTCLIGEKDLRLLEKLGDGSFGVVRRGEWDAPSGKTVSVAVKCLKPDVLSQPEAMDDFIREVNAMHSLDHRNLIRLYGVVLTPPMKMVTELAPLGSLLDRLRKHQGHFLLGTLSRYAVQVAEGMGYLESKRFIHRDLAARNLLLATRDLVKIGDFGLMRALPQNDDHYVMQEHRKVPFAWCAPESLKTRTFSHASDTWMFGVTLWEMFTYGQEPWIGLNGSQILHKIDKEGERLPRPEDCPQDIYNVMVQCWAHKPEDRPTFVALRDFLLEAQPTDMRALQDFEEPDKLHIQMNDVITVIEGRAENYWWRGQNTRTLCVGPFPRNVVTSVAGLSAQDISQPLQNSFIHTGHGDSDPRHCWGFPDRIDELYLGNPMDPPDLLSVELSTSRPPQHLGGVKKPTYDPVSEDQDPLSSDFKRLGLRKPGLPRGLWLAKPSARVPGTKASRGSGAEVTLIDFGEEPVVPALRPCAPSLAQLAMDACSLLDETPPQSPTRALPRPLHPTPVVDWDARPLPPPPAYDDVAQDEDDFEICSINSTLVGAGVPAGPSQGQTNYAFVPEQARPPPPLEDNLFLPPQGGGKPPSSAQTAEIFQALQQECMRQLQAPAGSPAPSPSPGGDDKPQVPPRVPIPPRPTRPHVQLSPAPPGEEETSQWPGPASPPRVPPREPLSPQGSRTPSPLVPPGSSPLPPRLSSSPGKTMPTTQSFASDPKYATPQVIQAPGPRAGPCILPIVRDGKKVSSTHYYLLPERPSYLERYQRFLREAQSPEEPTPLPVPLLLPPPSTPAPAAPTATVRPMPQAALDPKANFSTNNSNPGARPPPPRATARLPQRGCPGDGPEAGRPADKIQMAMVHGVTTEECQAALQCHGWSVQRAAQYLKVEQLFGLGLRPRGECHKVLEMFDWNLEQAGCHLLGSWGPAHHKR
# Chain of UniProt Q15569 (whole entry, looked up): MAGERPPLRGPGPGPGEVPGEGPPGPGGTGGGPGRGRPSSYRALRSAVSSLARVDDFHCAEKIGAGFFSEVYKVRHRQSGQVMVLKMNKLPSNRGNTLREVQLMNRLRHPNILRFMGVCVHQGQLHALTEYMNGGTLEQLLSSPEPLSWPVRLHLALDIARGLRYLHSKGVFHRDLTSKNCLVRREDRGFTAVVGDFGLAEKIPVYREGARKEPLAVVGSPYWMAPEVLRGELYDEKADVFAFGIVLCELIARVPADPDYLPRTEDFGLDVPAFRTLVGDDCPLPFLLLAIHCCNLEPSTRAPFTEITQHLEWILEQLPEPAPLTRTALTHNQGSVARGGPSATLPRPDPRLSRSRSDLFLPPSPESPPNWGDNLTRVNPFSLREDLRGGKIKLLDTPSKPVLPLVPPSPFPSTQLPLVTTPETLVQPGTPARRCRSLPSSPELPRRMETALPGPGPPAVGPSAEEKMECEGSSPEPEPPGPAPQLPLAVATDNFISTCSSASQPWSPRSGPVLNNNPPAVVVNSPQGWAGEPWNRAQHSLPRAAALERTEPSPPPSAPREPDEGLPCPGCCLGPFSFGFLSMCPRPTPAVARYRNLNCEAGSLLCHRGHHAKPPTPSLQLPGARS
# Chain of UniProt Q9Y2H1 (whole entry, looked up): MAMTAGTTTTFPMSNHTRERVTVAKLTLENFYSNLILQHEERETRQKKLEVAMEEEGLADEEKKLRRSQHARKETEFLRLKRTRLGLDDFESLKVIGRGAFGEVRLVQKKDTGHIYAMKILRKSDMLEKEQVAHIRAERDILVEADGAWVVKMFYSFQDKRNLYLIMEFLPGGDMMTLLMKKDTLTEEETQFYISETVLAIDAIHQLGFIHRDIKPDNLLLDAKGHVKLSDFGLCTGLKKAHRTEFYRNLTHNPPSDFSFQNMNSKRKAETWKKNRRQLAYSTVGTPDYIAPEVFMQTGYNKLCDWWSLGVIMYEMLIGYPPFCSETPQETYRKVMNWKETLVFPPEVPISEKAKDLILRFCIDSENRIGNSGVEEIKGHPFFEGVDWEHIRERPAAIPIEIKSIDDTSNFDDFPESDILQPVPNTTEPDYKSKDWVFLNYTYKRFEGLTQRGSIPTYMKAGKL

# Set 1
# Structure (SMILES): CCCCC[C@@H](O)CC(=O)N[C@@H]1C(=O)N[C@H](CCCNC(=N)N)C(=O)N[C@@H](CO)C(=O)NCC(=O)N(C)[C@H](Cc2ccccc2)C(=O)N[C@@H](CC(C)C)C(=O)N[C@H](CCCNC(=N)N)C(=O)N[C@@H](CO)C(=O)N[C@H]([C@H](C)O)C(=O)N[C@H](Cc2c[nH]c3ccccc23)C(=O)N[C@@H]([C@@H](C)CC)C(=O)NCC(=O)O[C@@H]1C
# Organism: Staphylococcus aureus
# Strain: USA300
added,MIC
ubiquinone 4 µg/mL,8 µg/mL
menaquinone 64 µg/mL,> 64 µg/mL
ubiquinone 0 µg/mL,8 µg/mL

# Set 2
# Structure (SMILES): Cn1cncc1[C@@](O)(COc1ccc(C#N)cc1-c1ccc(OC(F)(F)F)cc1)c1ccc(C#N)cc1
# Technique: competition with immobilised ligand
# Tested at: 1 µM
target,effect on,remaining binding
"FLT3 (Homo sapiens, UniProt P36888, N841I)",cell-free assay,100%
"PIK3CA (Homo sapiens, UniProt P42336, M1043I)",cell-free assay,72%
"SBK3 (Homo sapiens, UniProt P0C264)",cell-free assay,92%
"Ribosomal protein S6 kinase alpha-3, N-terminal kinase domain (RPS6KA3, Homo sapiens, UniProt P51812)",cell-free assay,98%
"TNK2 (Homo sapiens, UniProt Q07912)",cell-free assay,100%
"CIT (Homo sapiens, UniProt O14578)",cell-free assay,97%
"RIOK1 (Homo sapiens, UniProt Q9BRS2)",cell-free assay,100%
"CSNK1A1 (Homo sapiens, UniProt P48729)",cell-free assay,78%
"TESK1 (Homo sapiens, UniProt Q15569)",cell-free assay,92%
"EIF2AK1 (Homo sapiens, UniProt Q9BQI3)",cell-free assay,100%
"LRRK2 (Homo sapiens, UniProt Q5S007)",cell-free assay,100%
"STK38L (Homo sapiens, UniProt Q9Y2H1)",binding,87%
"PIK3CD (Homo sapiens, UniProt O00329)",cell-free assay,84%
"MYLK (Homo sapiens, UniProt Q15746)",cell-free assay,99%
"Mast/stem cell growth factor receptor Kit, autoinhibited (KIT, Homo sapiens, UniProt P10721)",cell-free assay,90%
"PLK4 (Homo sapiens, UniProt O00444)",cell-free assay,84%

# Set 3
# Target: inorganic phosphate, free oxyanion
# Technique: microfluidic competitive inhibition
# Sample: in vitro, cell-free expressed
# Tested at: not given
# Notes: derived from inhibition constants, unchanged parent 615000 nM
# Reading: lower = stronger binding
# Starting sequence: PafA, mature enzyme, eGFP fusion (Elizabethkingia meningoseptica, UniProt Q9KJX5); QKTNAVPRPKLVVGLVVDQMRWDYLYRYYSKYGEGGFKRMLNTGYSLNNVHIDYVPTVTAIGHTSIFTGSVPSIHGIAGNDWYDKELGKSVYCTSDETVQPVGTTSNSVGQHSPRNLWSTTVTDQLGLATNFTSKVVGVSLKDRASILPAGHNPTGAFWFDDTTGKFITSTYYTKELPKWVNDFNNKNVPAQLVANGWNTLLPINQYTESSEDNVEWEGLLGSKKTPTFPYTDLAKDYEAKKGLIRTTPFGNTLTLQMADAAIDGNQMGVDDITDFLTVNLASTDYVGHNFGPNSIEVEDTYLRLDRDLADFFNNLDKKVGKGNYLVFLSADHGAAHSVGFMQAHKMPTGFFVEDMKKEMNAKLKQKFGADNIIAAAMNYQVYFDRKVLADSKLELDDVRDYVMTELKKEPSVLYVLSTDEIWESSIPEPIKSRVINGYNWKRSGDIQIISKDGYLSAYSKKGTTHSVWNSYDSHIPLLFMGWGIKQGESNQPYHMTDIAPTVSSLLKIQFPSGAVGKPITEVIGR
Variant,phosphate dissociation constant
V523A,655 µM
V353G,543 µM
M347G,355 µM
Y54G,41.4 µM
L177G,494 µM
K142V,2320 µM
E97V,645 µM
N153V,543 µM

# Further values, each from its own experiment
Molecule,tested on,test,system,setting,how to read,measurement,result
AAAVRKPIVLKR,human cyclin A2,"peptide binding, competitive growth sequencing","peptide, Saccharomyces cerevisiae, cyclin A2-Cln2 fusion strain","concentration not given, peptide tiling library","relative to: unfused Cln2 strain, direction not given",binding score,-0.0911
C/C=C/c1cc(OC)c(OC)cc1OC,"CAMK2A (Homo sapiens, UniProt Q9UQM7)","enzyme activity, inhibitor",,10 µM,,inhibition,18%
Cc1cccc(C)c1-n1nnnc1C1(N)CCC(C)CC1 (centres unmarked),,,"human, microsomes or S9","2 µM, 0.5 h",,remaining compound,0.99%
DTFDEAFLAAVRSHQG,human cyclin A2,"peptide binding, competitive growth sequencing","peptide, Saccharomyces cerevisiae, cyclin A2-Cln2 fusion strain","concentration not given, peptide tiling library","relative to: unfused Cln2 strain, direction not given",binding score,0.42
COc1ccc([C@@]23Oc4cc(OC)cc(OC)c4[C@]2(O)c2nc(-c4ccccc4)[nH]c(=O)c2[C@H]3c2ccccc2)cc1,"Eukaryotic initiation factor 4A-III (Homo sapiens, UniProt P38919)","RNA clamping, fluorescence polarization",,"concentration not given, mean of two replicates, added: FAM-labelled poly r(AG)8 RNA",,fluorescence polarization change,4.7 mP

# Repeated from above (set 2):
target,effect on,remaining binding
"EIF2AK1 (Homo sapiens, UniProt Q9BQI3)",cell-free assay,100%
"LRRK2 (Homo sapiens, UniProt Q5S007)",cell-free assay,100%
"STK38L (Homo sapiens, UniProt Q9Y2H1)",binding,87%
"PIK3CD (Homo sapiens, UniProt O00329)",cell-free assay,84%
